Results gathered from unrelated publications.
Parts stem from different laboratories: compare values within a part only.

Sample 1 — technique: aptamer microarray, sandwich; molecule type: DNA with 2'F-ANA; matrix: in vitro; tested at: 200 nM; with: Cy3 exosite-II aptamer, 400 nM; reading: higher = stronger binding; sequence: GGTTGGTGTGGTTGG
Target: Prothrombin, mature alpha-thrombin (F2, Homo sapiens, UniProt P00734)
Notes: whole 15-mer aptamer, many near background
`2'F-ANA at 2 5 9 10 11 12 15` — result for “mean fluorescence intensity”: 49.6 a.u.
Under “mean fluorescence intensity”, `2'F-ANA at 1 3 8 9 10 12 13 15` is recorded as 112 a.u.
`2'F-ANA at 1 3 5 6 8 9 10 12 13`: “mean fluorescence intensity” 50.8 a.u.
`2'F-ANA at 1 5 6 7 8 9` — result for “mean fluorescence intensity”: 67.3 a.u.
Under “mean fluorescence intensity”, `2'F-ANA at 1 2 3 6 7 8 9 12 13 14 15` is recorded as 92.3 a.u.
`2'F-ANA at 1 2 3 4 10 11 13`: “mean fluorescence intensity” 80.1 a.u.
For `2'F-ANA at 1 4 5 6 7 9 10 11 13 14`, “mean fluorescence intensity” read 46.8 a.u.
`2'F-ANA at 4 6 7 9 11 14`: “mean fluorescence intensity” 71.5 a.u.
For `2'F-ANA at 2 4 7 8 9 13 14`, “mean fluorescence intensity” read 141 a.u.
Under “mean fluorescence intensity”, `2'F-ANA at 1 6 8` is recorded as 238 a.u.
`2'F-ANA at 2 4 5 12 15` — result for “mean fluorescence intensity”: 151 a.u.
`2'F-ANA at 2 5 7 8 11 12 14 15`: “mean fluorescence intensity” 60.1 a.u.
Under “mean fluorescence intensity”, `2'F-ANA at 4 5 8 10 11 13 14` is recorded as 49 a.u.
`2'F-ANA at 1 4 6 8 9 10 12 13 15` — result for “mean fluorescence intensity”: 54 a.u.
`2'F-ANA at 1 2 4 6 7 10 13` — result for “mean fluorescence intensity”: 46.4 a.u.
Under “mean fluorescence intensity”, `2'F-ANA at 1 2 6 7 9 11 12 13 15` is recorded as 162 a.u.
Under “mean fluorescence intensity”, `2'F-ANA at 1 2 5 9 12 13` is recorded as 80.7 a.u.
`2'F-ANA at 3 6 12 14`: “mean fluorescence intensity” 694 a.u.
`2'F-ANA at 2 6 7 12 14 15`: “mean fluorescence intensity” 168 a.u.
For `2'F-ANA at 3 4 6 8 9 10 11 15`, “mean fluorescence intensity” read 206 a.u.
For `2'F-ANA at 1 2 5 7 8 14 15`, “mean fluorescence intensity” read 71.5 a.u.
Under “mean fluorescence intensity”, `2'F-ANA at 1 4 7 9 11 12 13 14 15` is recorded as 54.6 a.u.
Under “mean fluorescence intensity”, `2'F-ANA at 4 5 7 10 11 13 14 15` is recorded as 69.5 a.u.

Sample 2 — target: Sox-I, HMG box (Salpingoeca helianthica); technique: Spec-seq; molecule type: double-stranded DNA, one strand shown; matrix: in vitro; tested at: not given; notes: whole probe, mean of replicates; baseline: not given; reading: lower = stronger binding; all sequences stand within: GAGTCGTCTCGTCAGCAC … CCGTAGAGCACTCAGGTC
Target sequence (chain): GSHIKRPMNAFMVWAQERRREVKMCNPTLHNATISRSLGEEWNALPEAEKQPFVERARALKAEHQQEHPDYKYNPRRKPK
`TGAAGTT`: “relative binding energy” 0.604 ln ratio.
`CATTTAT`: “relative binding energy” 0.358 ln ratio.
`TACGGTT`: “relative binding energy” 0.538 ln ratio.
`CATACGG` — result for “relative binding energy”: 0.606 ln ratio.
For `CATCGCG`, “relative binding energy” read 1.13 ln ratio.
`CATTGCT` — result for “relative binding energy”: 0.468 ln ratio.
For `GGCTGTT`, “relative binding energy” read -0.391 ln ratio.
`CATGTTC`: “relative binding energy” 1.1 ln ratio.
`ACTAGTT` — result for “relative binding energy”: -0.647 ln ratio.
`TCGGGTT` — result for “relative binding energy”: 0.972 ln ratio.
Under “relative binding energy”, `CATAGTA` is recorded as -0.257 ln ratio.
`CATATCA`: “relative binding energy” 0.485 ln ratio.
For `TGTCGTT`, “relative binding energy” read 0.52 ln ratio.
For `CATCTAT`, “relative binding energy” read 0.427 ln ratio.
For `ACGAGTT`, “relative binding energy” read 0.3 ln ratio.
Under “relative binding energy”, `CATAATC` is recorded as -0.139 ln ratio.
`TAAGGTT`: “relative binding energy” 0.765 ln ratio.
`ACCCGTT` — result for “relative binding energy”: 0.256 ln ratio.
`GGGGGTT`: “relative binding energy” 1.18 ln ratio.
For `GGATGTT`, “relative binding energy” read 0.372 ln ratio.
For `CATACCT`, “relative binding energy” read 0.0953 ln ratio.
For `CCAGGTT`, “relative binding energy” read 0.92 ln ratio.
For `CCCGGTT`, “relative binding energy” read 0.811 ln ratio.
`ACCAGTT` — result for “relative binding energy”: -0.87 ln ratio.
`CATCAAT` — result for “relative binding energy”: 0.405 ln ratio.

Sample 3 — technique: protein-binding microarray; molecule type: double-stranded DNA, one strand shown; matrix: in vitro; tested at: 940 nM top; notes: 60-bp whole probe; with: salmon DNA 0.4 mg/ml; baseline: random background probes; reading: higher = stronger binding; all sequences stand within: GCCTAGCAC … GTCTTGATTCGCTTGACGCTGCTG
Target: Interferon regulatory factor 5, full length, phosphomimetic (IRF5, Homo sapiens, UniProt Q13568-2, residues 1-514, S451D/S453D/S456D/S462D)
Under “fitted relative affinity”, `GACGAACTGAGACTGGAGAGGTGCTAG` is recorded as -0.408 z-score.
Under “fitted relative affinity”, `GACGGTTTCCTACTGCTGCCGTGCTAG` is recorded as 0.892 z-score.
Under “fitted relative affinity”, `TTAGGACTGGGGTAACGGTTAGTGCTA` is recorded as -0.17 z-score.
For `GACGGTTTCGACTTTCTGGACGTGCTA`, “fitted relative affinity” read 7.34 z-score.
`TCACTTTTCCCCCTAGTACTGTGCTAG`: “fitted relative affinity” 1.32 z-score.
For `GGGCGGGTGCCAACTCTTAGGTGCTAG`, “fitted relative affinity” read -0.785 z-score.
`GACCATCTCAGACTGGAGACGTGCTAG` — result for “fitted relative affinity”: -0.014 z-score.
`TAGAACTTCTCCACTGAATGAGTGCTA`: “fitted relative affinity” 0.104 z-score.
Under “fitted relative affinity”, `TCACATTTCCCTTGCCGACTGTGCTAG` is recorded as 1.25 z-score.
Under “fitted relative affinity”, `TTAGGACTGGGCATCGGTTAGTGCTAG` is recorded as -0.331 z-score.
For `GTTGGGGCGGGGCGGGGTGGGTGCTAG`, “fitted relative affinity” read 3.2 z-score.
`TTAGGACTGCTCCTGCTTTAGTGCTAG` — result for “fitted relative affinity”: -0.655 z-score.
For `TAAGGTATCGACTATCGGTTAGTGCTA`, “fitted relative affinity” read 3.88 z-score.
`GACGCTATCCTACTGCTGACGTGCTAG`: “fitted relative affinity” 0.0233 z-score.
For `TCATGAATGCCCTTCCATACTGTGCTA`, “fitted relative affinity” read 0.21 z-score.
Under “fitted relative affinity”, `CTCCATGAACAGGGCTGATGGTGCTAG` is recorded as -0.211 z-score.
`CTCTTCTTGCATCTGGGTATGTGCTAG`: “fitted relative affinity” 0.461 z-score.
Under “fitted relative affinity”, `GACGAATTCAGTATCGAGACGTGCTAG` is recorded as 2.54 z-score.
For `GACGGACTGGGACTGGGCACGTGCTAG`, “fitted relative affinity” read -0.708 z-score.
`AAGAATCAGGGGTTTTATCCGTGCTAG`: “fitted relative affinity” -0.18 z-score.
For `GACGGTAGCGACTTTCGGGACGTGCTA`, “fitted relative affinity” read 0.783 z-score.
`TCACCTCTGGGATCCCAGACTGTGCTA` — result for “fitted relative affinity”: -0.153 z-score.
Under “fitted relative affinity”, `GACGGTCTCGACACTGGGGACGTGCTA` is recorded as 1.04 z-score.
For `CTAAATATCTTTGTTGAAAAGTGCTAG`, “fitted relative affinity” read 0.353 z-score.

Sample 4 — technique: competition protein-binding microarray; molecule type: double-stranded DNA, one strand shown; matrix: in vitro; tested at: 2 µM; with: Cbf1 competitor, 0.05 µM; reading: higher = stronger binding
Target: Phosphate system positive regulatory protein PHO4, full length, GST-tagged (PHO4, Saccharomyces cerevisiae, UniProt P07270, residues 1-312)
Notes: whole 60-bp probe, lowest competitor level
Target sequence (chain): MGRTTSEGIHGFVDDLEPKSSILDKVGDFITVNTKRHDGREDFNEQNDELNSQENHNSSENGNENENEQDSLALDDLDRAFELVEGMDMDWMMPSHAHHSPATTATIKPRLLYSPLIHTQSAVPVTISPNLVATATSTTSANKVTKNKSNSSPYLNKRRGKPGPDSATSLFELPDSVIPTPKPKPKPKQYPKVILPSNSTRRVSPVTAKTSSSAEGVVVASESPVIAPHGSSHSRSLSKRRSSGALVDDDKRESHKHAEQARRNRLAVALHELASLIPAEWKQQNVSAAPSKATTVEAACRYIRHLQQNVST
`AAAGCGGTAATTTGTGATGTGGGTGCAGATATCTATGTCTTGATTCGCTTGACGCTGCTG` has a fluorescence intensity of 4790 a.u.
`TCAAGTGGGGTAGGACACGGGACTTCAGGTCCTCCTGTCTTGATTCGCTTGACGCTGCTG` has a fluorescence intensity of 6800 a.u.
The fluorescence intensity of `ACCAGACGGAGTTTGCACGGGAGTGTTGTTGGGCGCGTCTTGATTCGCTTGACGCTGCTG` is reported as 6180 a.u.
`CTGGGGATCAGTTCTCACATGCATCATCCTTTAATAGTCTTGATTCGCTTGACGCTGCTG` gave a fluorescence intensity of 7470 a.u.
`TATTGGTTTTAGAAACACGTTTCGAATCTTCAGTATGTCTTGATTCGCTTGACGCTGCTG` gave a fluorescence intensity of 12800 a.u.
`GCCCTCGGCGGGGGCCACGTGGCTCTCAGGCGCCTGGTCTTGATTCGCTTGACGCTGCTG` gave a fluorescence intensity of 16300 a.u.
`GTCCCCTAAGTTCTTCACGTGTTCCCTTCTCATCGCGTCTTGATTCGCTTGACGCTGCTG` has a fluorescence intensity of 13500 a.u.
`TCTTAAAGTGTTCGGCACGCAAGATACCACCTAGGGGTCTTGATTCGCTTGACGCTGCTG` has a fluorescence intensity of 6100 a.u.
For `CTAACGAAGGTTTGCTTGGTGGGTGACAAGCCAAGTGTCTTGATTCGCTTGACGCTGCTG`, the fluorescence intensity was 3470 a.u.
For `AAAGCGGTAATTTGACAGGTGGGTGCAGATATCTATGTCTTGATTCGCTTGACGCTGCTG`, the fluorescence intensity was 6160 a.u.
`CGGGCATGTTGCAAACGCGTGTGAAAAAAAAAGAGAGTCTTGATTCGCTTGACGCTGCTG` has a fluorescence intensity of 10500 a.u.
`TGCGCAACAACTTGTCACAAGACTTTATGTCTAGAAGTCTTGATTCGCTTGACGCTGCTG` gave a fluorescence intensity of 3990 a.u.
`ATGTTAGCCTTTCACCACGTTCAGCAACCTTGTTGAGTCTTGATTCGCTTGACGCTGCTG` has a fluorescence intensity of 9870 a.u.
The fluorescence intensity of `GCTATTCGTTTTATAAATGAAGTTCTTTCCACAAGTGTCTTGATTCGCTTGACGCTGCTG` is reported as 4050 a.u.
For `CCTAATGCTGAAAAGCCCGTGCTTTTCCATTCTGCGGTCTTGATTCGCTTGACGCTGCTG`, the fluorescence intensity was 9790 a.u.
`AAAGCGGTAATTTTTCACGTGTCCTCACATATCTATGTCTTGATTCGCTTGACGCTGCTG` gave a fluorescence intensity of 14200 a.u.
For `AAGAAAGAGTTGGTCGTCGTGCCGATAACTTGAGAGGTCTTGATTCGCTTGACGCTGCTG`, the fluorescence intensity was 7170 a.u.
With `TATCTAGGATGCTGCACCGTGGCAACATTCCCCTCGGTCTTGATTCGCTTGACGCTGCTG` the fluorescence intensity was 7070 a.u.
